Assay results collected from several papers.
Protocols differ between the studies behind these lines.
Chain of UniProt P08684 (whole entry, looked up): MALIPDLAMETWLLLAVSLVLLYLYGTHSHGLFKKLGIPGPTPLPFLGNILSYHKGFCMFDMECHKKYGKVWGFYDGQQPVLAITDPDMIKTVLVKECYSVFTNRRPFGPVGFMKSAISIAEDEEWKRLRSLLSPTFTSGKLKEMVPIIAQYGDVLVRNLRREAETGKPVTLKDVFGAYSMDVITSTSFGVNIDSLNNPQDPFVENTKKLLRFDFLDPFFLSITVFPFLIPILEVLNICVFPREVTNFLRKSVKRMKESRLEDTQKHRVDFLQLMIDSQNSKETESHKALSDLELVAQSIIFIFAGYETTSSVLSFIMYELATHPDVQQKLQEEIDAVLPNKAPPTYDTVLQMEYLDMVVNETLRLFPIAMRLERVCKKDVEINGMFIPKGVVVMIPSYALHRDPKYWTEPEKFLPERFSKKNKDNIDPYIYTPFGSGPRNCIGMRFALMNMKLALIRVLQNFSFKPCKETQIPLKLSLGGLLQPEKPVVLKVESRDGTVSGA

SMILES | target or system | test | test system | setting | measurement | result
CN(CCC#N)C(=O)c1ccc([C@H]2[C@@H](F)[C@@H](F)C[C@@H](F)[C@H]2F)cc1 |  | hepatocyte stability | cryopreserved mouse hepatocytes | 1 µM | hepatic clearance | 53 mL/min/kg
CC(C)(C(=O)N1CCOc2c(C#N)cncc2C1)C(F)F |  | item: Headache | human | oral, 20 mg twice daily, 14 days, multiple ascending dose | subjects with adverse event | 12.5%
O=C(Nc1nc2cccc(-c3ccc(CN4CCS(=O)(=O)CC4)cc3)n2n1)C1CC1 |  | item: blood triglycerides increased | rheumatoid arthritis patients | oral, 75 mg once daily, 4 weeks, any relatedness | treatment-emergent adverse events | 0%
Cc1cc(Nc2ccc(S(F)(F)(F)(F)F)cc2)n2nc(C(C)(F)F)nc2n1 | Plasmodium vivax | 12-lead Holter ECG | human malaria patients | oral, 600 mg, QTc above 450 ms | patients with QTcB above threshold | 11.1%
COCCN(C)C(=O)c1ccc([C@H]2[C@@H](F)[C@@H](F)C[C@@H](F)[C@H]2F)cc1 |  | liver microsome stability | rat liver microsomes | 1 µM | hepatic clearance | 24 mL/min/kg
Cc1cc(C(=O)NC(C)(C)COc2cccc3c2C(N)=NS(=O)(=O)N3)cc(C)n1 | human peripheral blood lymphocytes | in vitro micronucleus test | 0.4% DMSO | 1000 µg/mL, 4 h | micronucleated binucleated cells | 0.2%
CN1CCN(C(=O)c2ccc([C@H]3[C@@H](F)[C@@H](F)C[C@@H](F)[C@H]3F)cc2)CC1 |  | hepatocyte stability | cryopreserved mouse hepatocytes | 1 µM | hepatic clearance | 37 mL/min/kg
CCOc1c([C@H](C)n2nc(C)c3c(N)ncnc32)cc(Cl)c(F)c1[C@@H]1CNC(=O)C1 |  | ECG | previously treated B-cell malignancy patients | oral, 10 mg once daily, baseline QTcF ≤450 ms | observations QTcF >450 ≤480 ms | 0%
CC[C@H]1[C@@H](O)[C@@H]2[C@H](CC[C@]3(C)[C@@H]([C@H](C)CCNC(=O)NS(=O)(=O)c4ccc(C(C)(C)C)cc4)CC[C@@H]23)[C@@]2(C)CC[C@@H](O)C[C@@H]12 | Cytochrome P450 3A4 (CYP3A4, Homo sapiens, UniProt P08684) | substrate | human, plasma | 10 mg, alone, study day 1 | Cmax geometric mean | 31.2 ng/mL

A few entries again:
SMILES | target or system | test | test system | setting | measurement | result
CN1CCN(C(=O)c2ccc([C@H]3[C@@H](F)[C@@H](F)C[C@@H](F)[C@H]3F)cc2)CC1 |  | hepatocyte stability | cryopreserved mouse hepatocytes | 1 µM | hepatic clearance | 37 mL/min/kg
